Results of several laboratories.
Each numbered part is a random draw from the data of one study; scales do not carry over between parts. Changes are numbered by the printed parent chain.

Series 1 — technique: RNA Bind-n-Seq; molecule type: RNA; medium: in vitro; tested at: not given; baseline: input RNA pool; reading: higher = stronger binding
Target: RING finger protein unkempt homolog, zinc fingers 1-6, GST-SBP tag (UNK, Homo sapiens, UniProt Q9C0B0, residues 30-357)
UniProt Q9C0B0, sequence (30-357, looked up): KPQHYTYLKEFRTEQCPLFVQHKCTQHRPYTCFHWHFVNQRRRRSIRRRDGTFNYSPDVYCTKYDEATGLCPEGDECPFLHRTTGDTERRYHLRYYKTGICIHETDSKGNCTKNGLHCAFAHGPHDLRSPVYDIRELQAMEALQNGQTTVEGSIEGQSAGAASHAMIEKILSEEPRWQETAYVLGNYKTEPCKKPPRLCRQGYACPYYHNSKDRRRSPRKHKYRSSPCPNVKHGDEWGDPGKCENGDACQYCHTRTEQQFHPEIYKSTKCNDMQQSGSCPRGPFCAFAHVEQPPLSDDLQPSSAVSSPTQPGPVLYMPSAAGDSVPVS
Notes: RNA with constant flanks, human and mouse sites, ends assumed
Shared flanks, not repeated: GGGAGUUCUACAGUCCGACGAUC … CAACAGAGGAUUGAGCAUCA
Strand	bound/input enrichment [ratio]
CCGCGGCUUGCCGGAAGUGGGCAGGGCGGCAGCGGCUGCUCUUGGCGGCCCCGAGGUGACUAUAGCCUUCUUUUGUGUCUUGAUAGUUCGCCAUGGAUGACGAUAUCGCUGCGCUGGUCG	0.174
GUCUUCCAUCAUAAAUUUAACUUCAUUAGAUACCUGAGAAUUAAUAUUGAAAAUACACCAUAUGAAUUUAGUGAAUGUGGGAAAGCUUUCAUCCUUAUUACAUCUUAUUUGAUACUAGGG	5.86
UAACCACAGCAGAGGGCAGAUGCUUGAUAGAUUAUCUUUUCCUUGCUUUCUUGUUUCUGUUUUGAAAGUGAAAUGGGGUUUUAAAUUGUUAUUUAAACUCUUUUUCCAAAUAAAGGUUUA	0.349
ACCAAUGAAAAUCAGAAGACUAAUACUGUGGCUAAACAGGAGCAGCGACCUAUAAAAAAGAAUAGUCUCUAUUCAACAGAUUUUAUAGUGUUUAAUGACAAUGAUGGUUCAGAUGAUGAG	0.414
GCCUUUGAAGUGGAGCAUGAAUGCCUAGGCAAAUGUCAGGGUUUAUUUGCACCCCAGUUUUAUGUUCAGCCUGAUGCUCCGUGUAUUCAAUGUCUGGAGUGUUGUGGAAUGUUUGCACCC	0.21
ACAAAACAAGCAGCAUUUAAAGCUGUUUCUGAAGUUUGUCGCAUUCCUACCCAUCUCUUUACUUUUAUCCAGUUUAAGAAAGAUCUGAAGGAAAGCAUGAAAUGUGGCAUGUGGGGUCGU	0.214
UUGAAGGACAAGGGCAUUAAAGGAGAGGAAAUAGUUCAGCAGUUAAUUGAAAAUAGUACAACAUUCCGAGACAAGACAGAAUUUGCCCAAGAUAAAUAUAUUAAAAAGAAGAAAAAAAAA	3.72
ACUGAAUUAAAUCAUCAUGCAUAUUUAUUUCUCCAAAGCACCUUUGACAAGCAUGAUUUGGAUAGAGACUGUGCUUUGUCACCUGAUGAGCUUAAAGAUUUAUUUAAAGUUUUCCCUUAC	0.196

Series 2 — target: UBE2O UBC core domain (UniProt Q9C0C9); technique: yeast two-hybrid; medium: yeast; notes: mostly zero background; baseline: not given; reading: higher = stronger interaction
B1: RC3H1 RING domain (UniProt Q5TC82); chain QAPQWTDFLSCPICTQTFDETIRKPISLGCGHTVCKMCLNKLHRKACPFDQTTINTDIELL
B2: TRIM4 RING domain (UniProt Q9C037); chain EAEDIQEELTCPICLDYFQDPVSIECGHNFCRGCLHRNWAPGGGPFPCPECRHPSAPAALRP
B3: RNF208 RING domain (UniProt Q9H0X6); chain SSAAAGEPLECPTCGHSYNVTQRRPRVLSCLHSVCEQCLQILYESCPKYKFISCPTCRRETVLFTDYG
B4: RNF38 RING domain (UniProt Q9H0F5); chain PNNHQSEQTLCVVCMCDFESRQLLRVLPCNHEFHAKCVDKWLKANRTCPICRADASEVHRDS
B5: NEURL1 RING domain (UniProt O76050); chain VTPGLGQWSDECTICYEHAVDTVIYTCGHMCLCYACGLRLKKALHACCPICRRPIKDIIKT
Target sequence (chain): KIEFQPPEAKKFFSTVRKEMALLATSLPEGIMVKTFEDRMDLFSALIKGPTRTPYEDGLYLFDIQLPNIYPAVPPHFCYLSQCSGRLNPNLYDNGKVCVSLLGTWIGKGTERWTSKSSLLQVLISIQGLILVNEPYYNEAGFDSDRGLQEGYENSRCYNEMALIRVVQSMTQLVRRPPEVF
Molecule	lacZ reporter activity
B1 (RC3H1 RING domain)	0
PAELEVQASECVVCLEREAQMIFLNCGHVCCCQQCCQPLRTCPLCRQDIAQRLRIY (LRSAM1 RING domain (UniProt Q6UWE0))	0
B2 (TRIM4 RING domain)	0
B3 (RNF208 RING domain)	0
B4 (RNF38 RING domain)	0
B5 (NEURL1 RING domain)	0

Series 3 — target: CCNE2, cyclin fold, Cln2 fusion (human); technique: yeast growth competition, sequencing; medium: yeast; notes: strong parent motif; baseline: not given; reading: higher = stronger binding
Starting sequence: E2F1 docking peptide (human); PPVKRRLDFETDH; partner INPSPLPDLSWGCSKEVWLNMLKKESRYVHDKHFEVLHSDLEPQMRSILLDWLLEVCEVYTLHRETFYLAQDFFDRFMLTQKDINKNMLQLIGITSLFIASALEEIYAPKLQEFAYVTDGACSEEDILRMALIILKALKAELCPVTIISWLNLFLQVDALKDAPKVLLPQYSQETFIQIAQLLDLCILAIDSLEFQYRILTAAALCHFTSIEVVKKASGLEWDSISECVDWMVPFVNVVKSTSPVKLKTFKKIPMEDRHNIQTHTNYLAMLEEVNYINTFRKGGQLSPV
Change	normalised enrichment score
V3R	0.415
K4G	0.885
R6Q	4.53
E10A	6.05
E10C	6.11
L7A	0.143
T11L	5.77
F9T	0.808
D12K	6.32
R6K	5.54
L7Q	-0.239
P2V	4.4
L7G	0.133
R5N	0.249
T11K	5.76
P2F	4.17
R5G	0.17

Series 4 — technique: DHFR PCA, deep sequencing; medium: yeast; added: (+)-ABA 200 µM; baseline: wild-type fitted maximum; reading: higher = stronger binding
Target: ABI1, truncated, D143A, DHFR fusion (Arabidopsis thaliana)
Notes: methotrexate growth selection, single substitutions
Starting sequence: PYL1, truncated, DHFR fusion (Arabidopsis thaliana); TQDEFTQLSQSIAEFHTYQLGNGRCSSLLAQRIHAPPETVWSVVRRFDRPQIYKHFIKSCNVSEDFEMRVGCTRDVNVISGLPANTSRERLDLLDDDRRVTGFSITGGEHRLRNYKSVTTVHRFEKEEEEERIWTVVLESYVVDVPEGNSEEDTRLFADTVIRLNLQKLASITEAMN; partner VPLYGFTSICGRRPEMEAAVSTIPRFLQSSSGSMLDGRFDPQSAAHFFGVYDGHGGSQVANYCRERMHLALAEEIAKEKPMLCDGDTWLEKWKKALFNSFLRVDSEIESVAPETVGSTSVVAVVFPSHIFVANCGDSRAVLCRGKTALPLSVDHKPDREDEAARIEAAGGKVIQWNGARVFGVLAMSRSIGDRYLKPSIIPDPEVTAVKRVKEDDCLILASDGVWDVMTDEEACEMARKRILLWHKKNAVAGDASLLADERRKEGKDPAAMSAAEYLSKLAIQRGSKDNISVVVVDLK
Change	relative binding score [%]
S87N	7.62
P83V	14.7
S150F	56.3
L29K	80
E152M	91.9
Y18G	80.9
N165L	1.02
E109I	98.5
A170W	20.3
N61I	107
A35N	22
T135H	-17.8
L82S	28.8

For quick reference, copied from above (series 3):
Change	normalised enrichment score
T11L	5.77
K4G	0.885
L7Q	-0.239
F9T	0.808
